Measured values gathered from unrelated publications.
Each numbered part is a random draw from the data of one study; scales do not carry over between parts. Positions count from the first letter of the parent shown.

Sample 1
Target: ABI1, truncated, D143A, DHFR fusion (Arabidopsis thaliana)
Method: DHFR PCA, deep sequencing
Matrix: yeast
Notes: methotrexate growth selection, single substitutions
Together with: (+)-ABA 0.0091 µM
Baseline: wild-type fitted maximum
Reading: higher = stronger binding
Starting sequence: PYL1, truncated, DHFR fusion (Arabidopsis thaliana); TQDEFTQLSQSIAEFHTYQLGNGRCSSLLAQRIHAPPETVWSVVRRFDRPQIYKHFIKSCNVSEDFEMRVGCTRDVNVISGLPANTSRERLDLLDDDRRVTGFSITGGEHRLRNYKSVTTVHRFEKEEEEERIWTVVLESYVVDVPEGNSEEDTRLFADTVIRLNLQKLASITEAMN; partner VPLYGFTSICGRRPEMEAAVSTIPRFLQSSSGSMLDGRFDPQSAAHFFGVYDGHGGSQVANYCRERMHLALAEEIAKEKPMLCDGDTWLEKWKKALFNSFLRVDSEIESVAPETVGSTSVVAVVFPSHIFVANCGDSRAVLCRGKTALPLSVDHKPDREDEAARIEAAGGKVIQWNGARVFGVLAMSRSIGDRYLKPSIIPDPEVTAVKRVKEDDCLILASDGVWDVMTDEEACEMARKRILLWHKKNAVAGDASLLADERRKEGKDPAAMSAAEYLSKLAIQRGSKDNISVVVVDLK
For `L91I`, “relative binding score” read 2.23%.
`R69A`: “relative binding score” 19.1%.
`C60W`: “relative binding score” 2.67%.
`Y115M`: “relative binding score” 1.15%.
For `S104L`, “relative binding score” read -4.22%.
For `L164Y`, “relative binding score” read 4.91%.
`D159H`: “relative binding score” -4.82%.
Under “relative binding score”, `E14V` is recorded as 1.66%.
`N149M` — result for “relative binding score”: 47.8%.
`R98Y`: “relative binding score” -6.53%.
`G21V`: “relative binding score” 19.6%.
For `R132H`, “relative binding score” read 29.1%.
For `E109C`, “relative binding score” read 10.7%.

Sample 2
Target: Prothrombin, mature alpha-thrombin (F2, Homo sapiens, UniProt P00734)
Method: aptamer microarray, sandwich
Form: DNA with 2'F-ANA
Matrix: in vitro
Tested at: 200 nM
Notes: whole 15-mer aptamer, many near background
Together with: Cy3 exosite-II aptamer, 400 nM
Reading: higher = stronger binding
Sequence: GGTTGGTGTGGTTGG
`2'F-ANA at 2 3 4 5 10 12 15` — result for “mean fluorescence intensity”: 64.8 a.u.
For `2'F-ANA at 1 4 10 12 13`, “mean fluorescence intensity” read 89.6 a.u.
`2'F-ANA at 3 5 8 10 12 14`: “mean fluorescence intensity” 72.5 a.u.
For `2'F-ANA at 3 5 6 8 9 10 11 12 15`, “mean fluorescence intensity” read 89.1 a.u.
Under “mean fluorescence intensity”, `2'F-ANA at 1 2 5 6 7 9 13` is recorded as 49.7 a.u.
`2'F-ANA at 4 7 8 10 11 12 13 14` — result for “mean fluorescence intensity”: 60.4 a.u.
Under “mean fluorescence intensity”, `2'F-ANA at 1 2 3 4 5 10 11 12 13 14` is recorded as 51.8 a.u.
`2'F-ANA at 3 4 5 6 10 12` — result for “mean fluorescence intensity”: 56.7 a.u.
For `2'F-ANA at 1 2 4 6 7 13 14 15`, “mean fluorescence intensity” read 49.9 a.u.
Under “mean fluorescence intensity”, `2'F-ANA at 2 3 5 8 15` is recorded as 139 a.u.
For `2'F-ANA at 4 7 8 9 10 13`, “mean fluorescence intensity” read 74.4 a.u.
For `2'F-ANA at 5 7 8 14`, “mean fluorescence intensity” read 45.3 a.u.
`2'F-ANA at 1 3 4 5 8 10` — result for “mean fluorescence intensity”: 101 a.u.
`2'F-ANA at 1 2 3 4 6 8 11 15` — result for “mean fluorescence intensity”: 156 a.u.
Under “mean fluorescence intensity”, `2'F-ANA at 4 8 9 11 12 13` is recorded as 353 a.u.
For `2'F-ANA at 1 2 6 7 10 11 12 13 14 15`, “mean fluorescence intensity” read 51.2 a.u.
For `2'F-ANA at 2 3 8 10 11 13 14 15`, “mean fluorescence intensity” read 234 a.u.
For `2'F-ANA at 1 2 3 4 7 8 9 12`, “mean fluorescence intensity” read 437 a.u.
For `2'F-ANA at 3 5 6 8 9 11 12 14`, “mean fluorescence intensity” read 59.7 a.u.
Under “mean fluorescence intensity”, `2'F-ANA at 1 2 5 6 7 8 9 11 14 15` is recorded as 53.6 a.u.
Under “mean fluorescence intensity”, `2'F-ANA at 1 3 5 8 9 11 12 13 14 15` is recorded as 57.3 a.u.
`2'F-ANA at 3 5 6 12 13 14`: “mean fluorescence intensity” 55.8 a.u.
`2'F-ANA at 2 3 6 8 9 15` — result for “mean fluorescence intensity”: 801 a.u.
`2'F-ANA at 1 2 3 5 6 8 11 12` — result for “mean fluorescence intensity”: 90.6 a.u.
`2'F-ANA at 2 3 5 14 15`: “mean fluorescence intensity” 92.6 a.u.

Sample 3
Target: CCNE1, cyclin fold, Cln2 fusion (human)
Method: yeast growth competition, sequencing
Matrix: yeast
Notes: weak parent motif
Baseline: not given
Reading: higher = stronger binding
Starting sequence: DNAH7 docking peptide (human); HELFQRLDFDNDG
For `HALFQRLDFDNDG [E2A]`, “normalised enrichment score” read 0.131.
Under “normalised enrichment score”, `HELFQRLDFDNAG [D12A]` is recorded as -0.0542.
For `HELAQRLDFDNDG [F4A]`, “normalised enrichment score” read -0.143.
`HEAFQRLDFDNDG [L3A]`: “normalised enrichment score” 0.0896.
For `HELFQRLDFDADG [N11A]`, “normalised enrichment score” read 0.0149.
`HELFQRADFDNDG [L7A]` — result for “normalised enrichment score”: -0.265.

Sample 4
Target: CDC34 UBC core domain (UniProt P49427)
Method: yeast two-hybrid
Matrix: yeast
Notes: mostly zero background
Baseline: not given
Reading: higher = stronger interaction
B1: DTX4 RING domain (UniProt Q9Y2E6); chain QKVRHPPDEDCTICMERLTAPSGYKGPQPTVKPDLVGKLSRCGHVYHIYCLVAMYNNGNKDGSLQCPTCKTIYGVKTGTQ
B2: TRIM43 RING domain (UniProt Q96BQ3); chain FSHAFQKELTCVICLNYLVDPVTICCGHSFCRPCLCLSWEEAQSPANCPACREPSPKMDFKT
B3: RNF111 RING domain (UniProt Q6ZNA4); chain EGTEEDTEEKCTICLSILEEGEDVRRLPCMHLFHQVCVDQWLITNKKCPICRVDIEAQLPSE
B4: TRIM5 RING domain (UniProt Q9C035); chain ILVNVKEEVTCPICLELLTQPLSLDCGHSFCQACLTANHKKSMLDKGESSCPVCRISYQPENIRP
B5: TRIM40 RING domain (UniProt Q6P9F5); chain LQKDNQEEGVCPICQESLKEAVSTNCGHLFCRVCLTQHVEKASASGVFCCPLCRKPCSEEVLG
Residues (chain): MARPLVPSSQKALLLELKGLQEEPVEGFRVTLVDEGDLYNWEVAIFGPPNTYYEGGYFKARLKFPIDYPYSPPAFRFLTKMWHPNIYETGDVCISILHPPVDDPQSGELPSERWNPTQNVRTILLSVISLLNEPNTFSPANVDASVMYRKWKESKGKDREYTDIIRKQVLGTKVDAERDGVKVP
`B1 (DTX4 RING domain)` — result for “lacZ reporter activity”: 0.
`B2 (TRIM43 RING domain)`: “lacZ reporter activity” 0.
For `MPIRALCTICSDFFDHSRDVAAIHCGHTFHLQCLIQWFETAPSRTCPQCRIQVGKRTIIN (TRAIP RING domain (UniProt Q9BWF2))`, “lacZ reporter activity” read 0.
Under “lacZ reporter activity”, `B3 (RNF111 RING domain)` is recorded as 0.
`B4 (TRIM5 RING domain)`: “lacZ reporter activity” 0.
For `PAELEVQASECVVCLEREAQMIFLNCGHVCCCQQCCQPLRTCPLCRQDIAQRLRIY (LRSAM1 RING domain (UniProt Q6UWE0))`, “lacZ reporter activity” read 0.
`GAAPGPEAAECLVCSELALLVLFSPCQHRTVCEECARRMKKCIRCQVVVSKKLRPD (MIB2 RING domain (UniProt Q96AX9))` — result for “lacZ reporter activity”: 0.
For `B5 (TRIM40 RING domain)`, “lacZ reporter activity” read 0.

Sample 5
Target: Ras GTPase-activating protein-binding protein 1, C-terminal RGG region (G3BP1, Homo sapiens, UniProt Q13283)
UniProt Q13283, sequence (whole entry, looked up): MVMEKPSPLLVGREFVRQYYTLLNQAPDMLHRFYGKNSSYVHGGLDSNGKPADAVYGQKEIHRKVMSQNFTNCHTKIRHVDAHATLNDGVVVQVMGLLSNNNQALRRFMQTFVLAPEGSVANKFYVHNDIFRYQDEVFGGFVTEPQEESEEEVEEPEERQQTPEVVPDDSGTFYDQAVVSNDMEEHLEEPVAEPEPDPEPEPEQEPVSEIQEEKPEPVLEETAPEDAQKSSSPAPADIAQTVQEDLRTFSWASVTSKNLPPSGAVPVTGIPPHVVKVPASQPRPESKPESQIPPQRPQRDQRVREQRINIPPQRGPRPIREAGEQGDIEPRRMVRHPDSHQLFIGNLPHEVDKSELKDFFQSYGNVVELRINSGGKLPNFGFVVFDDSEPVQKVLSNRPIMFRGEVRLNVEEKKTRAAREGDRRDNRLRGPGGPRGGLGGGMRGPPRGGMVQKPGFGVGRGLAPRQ
Method: RNA Bind-n-Seq
Form: RNA
Matrix: in vitro
Tested at: 1 µM
Notes: whole 134-nt RNA, ends assumed
Together with: 150 mM KCl
Baseline: input library
Reading: higher = stronger binding
For `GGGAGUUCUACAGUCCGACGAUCCAAGUCCUGUGCUACACAUCGUAUGUACCGAAUCGGGAAAAGGAAAAGGAAAAGGAAAGUAUUAUGUUACGCCGUUCGGAUCUGCACUUCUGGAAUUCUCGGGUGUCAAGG`, the log2 enrichment was -1.84.
For `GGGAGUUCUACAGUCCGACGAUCCUGUGCUACACAUCGUAUGUACCGAAUCGGGAAAAAAAGGGUUUUUUUGGGUUUUUUUGGGAAAGUAUUAUGUUACGCCGUUCGGAUCUGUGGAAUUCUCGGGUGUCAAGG`, the log2 enrichment was -1.92.
`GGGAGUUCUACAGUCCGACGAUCAGUCCUGUGCUACACAUCGUAUGUACCGAAUCGGGAAAGGGUUUGGGUUUUUUUGGGAAAGUAUUAUGUUACGCCGUUCGGAUCUGCACUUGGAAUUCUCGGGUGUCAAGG` has a log2 enrichment of 0.433.
`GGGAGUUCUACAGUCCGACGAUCCCUGUGCUACACAUCGUAUGUACCGAAUCGGGCCCCCCGGCCCCCCGGGGCCCCCCGGGGAAAGUAUUAUGUUACGCCGUUCGGAUCUGCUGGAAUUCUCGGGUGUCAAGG` gave a log2 enrichment of -1.47.
`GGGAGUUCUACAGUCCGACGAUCACCAUGCAGGUGGGCAUCUUUGGGAAGUGGGUCAAGGGGGGGAUAGGGAGGGGGGUAACACUUUGGGAACAGGUGGUCCCAGGUCGUUUCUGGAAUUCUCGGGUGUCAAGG` gave a log2 enrichment of -0.374.
With `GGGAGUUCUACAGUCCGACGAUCUCCUGUGCUACACAUCGUAUGUACCGAAUCGGUUUUUUGGUUUUUUGGGGUUUUUUGGGGAAAGUAUUAUGUUACGCCGUUCGGAUCUGCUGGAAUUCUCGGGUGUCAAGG` the log2 enrichment was -0.958.
The log2 enrichment of `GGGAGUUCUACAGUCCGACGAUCUGUACUCGGAAGUUUCACUUACCAUCGACCACUCUCUGAUUCCGGAGGAGAGGCUCUCGCCCACCCCAUCCAUGCAGGAUGGGCUCGACCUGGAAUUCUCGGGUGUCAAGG` is reported as -0.555.
With `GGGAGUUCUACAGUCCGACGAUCAACUGGAAGAACAGACCCGUAGGGCUCUGGAACUUGAGCAGGAACGGAAGCGUGCCCAGAGCGAGGCUGAAAAGCUGGCCAAGGAGCGUCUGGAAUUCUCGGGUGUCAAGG` the log2 enrichment was -1.38.
With `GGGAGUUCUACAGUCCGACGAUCAGUCCUGUGCUACACAUCGUAUGUACCGAAUCGGGGUUUUUGGGGUUUGGGGAGGGGAAAGUAUUAUGUUACGCCGUUCGGAUCUGCACUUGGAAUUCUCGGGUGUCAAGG` the log2 enrichment was 3.27.
`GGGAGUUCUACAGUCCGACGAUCUGGGAGGUGGAUUUUGUUUAUUUUUUUAGAUCAUUUCCAGGGGUGGGAAUUUUUUUUUAAUAUGUGUCAUGAAUAAAGUUGUUUUUGAAAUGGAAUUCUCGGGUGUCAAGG` gave a log2 enrichment of 3.9.
`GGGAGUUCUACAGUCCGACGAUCGUCCUGUGCUACACAUCGUAUGUACCGAAUCAAACCCCCAAACCCCCAAACCCCCAAAAAAGUAUUAUGUUACGCCGUUCGGAUCUGCACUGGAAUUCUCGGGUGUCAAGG` has a log2 enrichment of -1.02.
`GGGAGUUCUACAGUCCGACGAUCCUCCAGAAAGCAGUGGGGCCUGAGAUCACCAAGACAGACCUGGUCCCUGCCUUCCAGAACCUGAUGAAAGACUGUGAGGCCGAGGUGAGGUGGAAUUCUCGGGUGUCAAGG` has a log2 enrichment of -1.21.
With `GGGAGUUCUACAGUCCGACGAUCCCUGUGCUACACAUCGUAUGUACCGAAUCGGGUUUUUUGGGGUUUUUUGGUUUUUUGGGGAAAGUAUUAUGUUACGCCGUUCGGAUCUGCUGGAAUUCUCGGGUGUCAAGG` the log2 enrichment was -1.58.
For `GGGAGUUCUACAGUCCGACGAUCGUCCUGUGCUACACAUCGUAUGUACCGAAUCGGGAAAAAGGAAAAAGGGGAAAAAGGGAAAGUAUUAUGUUACGCCGUUCGGAUCUGCACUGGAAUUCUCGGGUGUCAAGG`, the log2 enrichment was -1.08.

Mixed results
Method: cross-linking MS
Notes: hits only
For `DDX5 (Homo sapiens, UniProt P17844)`, interaction screen read “cross-linked” (DDX17 (Homo sapiens, UniProt Q92841)).
`ATP5F1A (Homo sapiens, UniProt P25705)`: interaction screen “cross-linked” (ATP5F1C (Homo sapiens, UniProt P36542)).
